Measurements from different studies.
Lines come from different studies, so protocols differ. ± gives the spread as reported. ≈ marks a conversion by molar mass, not a printed value.
Organism: Enterococcus faecium

For `CC(=O)N[C@H]1[C@@H](O[C@@H]2O[C@H](C[C@@H](O)[C@H]3O[C@@H](n4ccc(=O)[nH]c4=O)[C@H](O)[C@@H]3O)[C@H](O)[C@H](O)[C@H]2NC(=O)/C=C/CCCCCCCCCC(C)C)O[C@H](CO)[C@@H](O)[C@@H]1O`, the MIC90 was 10.3 ± 0.246 µg/mL (≈ 12.4 µM) (resazurin microplate; NR-32065).
With `C[C@@H](NC(=O)[C@@H](C)NC(=O)[C@H](CCCCNC(=O)c1ccc(S(=O)(=O)F)cc1)NC(=O)c1ccc(S(=O)(=O)F)cc1)C(=O)O` the IC50 was 18.7 µM (cell growth; 24 h, together with: vancomycin 8 µg/mL).
Under “MIC geometric mean”, `CC[C@H](C)[C@H](NC(=O)[C@H](C)NC(=O)[C@H](CCCCN)NC(=O)[C@H](CC(C)C)NC(=O)[C@H](C)NC(=O)[C@@H](NC(=O)[C@H](Cc1c[nH]cn1)NC(=O)[C@H](CC(C)C)NC(=O)[C@@H](NC(=O)[C@@H](NC(=O)[C@H](CCCCN)NC(=O)[C@H](C)NC(=O)[C@H](C)NC(=O)[C@H](CO)NC(=O)[C@H](CCCCN)NC(=O)[C@H](Cc1ccccc1)NC(=O)[C@@H](NC(=O)[C@H](CCCCN)NC(=O)[C@H](CC(C)C)NC(=O)[C@H](Cc1ccccc1)NC(=O)[C@H](CO)NC(=O)[C@H](CCCCN)NC(=O)[C@H](Cc1c[nH]c2ccccc12)NC(=O)[C@H](CCCCN)NC(C)=O)[C@@H](C)O)[C@@H](C)O)C(C)C)[C@@H](C)O)C(=O)N[C@@H](CO)C(=O)N[C@@H](CO)C(N)=O` is recorded as 11.3 µg/mL (≈ 3.86 µM) (Enterococcus faecium; 40 strains).
With `CN[C@H](CC(C)C)C(=O)N[C@H]1C(=O)N[C@@H](CC(N)=O)C(=O)N[C@H]2C(=O)N[C@H]3C(=O)N[C@H](C(=O)N[C@H](C(=O)O)c4cc(O)cc(O)c4-c4cc3ccc4O)[C@H](O)c3ccc(c(Cl)c3)Oc3cc2cc(c3O[C@@H]2O[C@H](CO)[C@@H](O)[C@H](O)[C@H]2O[C@H]2C[C@](C)(N)[C@H](O)[C@H](C)O2)Oc2ccc(cc2Cl)[C@H]1O` the MIC range was at least 32 µg/mL (broth microdilution; VanA vancomycin-resistant clinical isolates).
`C[C@@H](NC(=O)[C@@H](C)NC(=O)[C@H](CCCCNC(=O)c1ccc(NC(=O)CCl)cc1)NC(=O)c1ccc(NC(=O)CCl)cc1)C(=O)O` has an IC50 of 48.1 µM (cell growth; 24 h, together with: vancomycin 8 µg/mL).
With `Cn1c(=O)ccc2ccc(F)c(CCNC[C@H]3CN(c4cnc5c(n4)NC(=O)CO5)C(=O)O3)c21` the MIC90 was 0.12 µg/mL (≈ 0.256 µM).
With `CCCCCCCCCC(=O)N[C@@H](Cc1c[nH]c2ccccc12)C(=O)N[C@H](CC(N)=O)C(=O)N[C@@H](CC(=O)O)C(=O)N[C@@H]1C(=O)NCC(=O)N[C@@H](CCCN)C(=O)N[C@@H](CC(=O)O)C(=O)N[C@H](C)C(=O)N[C@@H](CC(=O)O)C(=O)NCC(=O)N[C@H](CO)C(=O)N[C@@H]([C@H](C)CC(=O)O)C(=O)N[C@@H](CC(=O)c2ccccc2N)C(=O)O[C@@H]1C` the MIC was 2 µg/mL (≈ 1.23 µM) (resistant isolate; 16 h, together with: Ca2+ 10 mM).
`CN[C@H](CC(C)C)C(=O)N[C@H]1C(=O)N[C@@H](CC(N)=O)C(=O)N[C@H]2C(=O)NC3C(=O)N[C@H](C(=O)N[C@H](C(=O)NCCC[N+](C)(C)C)c4cc(O)cc(O)c4-c4cc3ccc4O)[C@H](O)c3ccc(c(Cl)c3)Oc3cc2cc(c3OC2OC(CO)C(O)[C@H](O)[C@@H]2O[C@H]2CC(C)(NCc3ccc(-c4ccc(Cl)cc4)cc3)[C@H](O)[C@H](C)O2)Oc2ccc(cc2Cl)[C@H]1O` (some centres unmarked) gave an MIC of 5 µg/mL (VanA VRE ATCC BAA-2317; together with: LTA 100 µg/mL).

A few entries again:
`C[C@@H](NC(=O)[C@@H](C)NC(=O)[C@H](CCCCNC(=O)c1ccc(NC(=O)CCl)cc1)NC(=O)c1ccc(NC(=O)CCl)cc1)C(=O)O` has an IC50 of 48.1 µM (cell growth; 24 h, together with: vancomycin 8 µg/mL).
